{"data": "Published values collected from several papers", "organism": "Pseudomonas aeruginosa", "note": "Lines come from different studies, so protocols differ."}
{"SMILES": "O=C(NCCNCCO)c1cn(Cc2ccccc2)c2cc(OCc3ccc(C(F)(F)F)cc3)c(Cl)cc2c1=O", "test system": "ATCC 27853", "scale": "≥80% growth inhibition", "MIC": "> 32 µg/mL"}
{"SMILES": "CC[C@H](C)[C@H](NC(=O)[C@H](CC(C)C)NC(=O)[C@H](CO)NC(=O)[C@H](CC(C)C)NC(=O)[C@@H](N)CCSC)C(=O)N[C@@H](Cc1ccccc1)C(=O)N[C@@H](CC(C)C)C(=O)N[C@@H](Cc1c[nH]cn1)C(=O)N[C@@H](CCCNC(=N)N)C(=O)N[C@@H](CC(C)C)C(=O)N[C@@H](CCCCN)C(=O)N[C@@H](CO)C(=O)N[C@@H](CCSC)C(=O)N[C@@H](CCCNC(=N)N)C(=O)N[C@@H](CCCCN)C(=O)N[C@@H](CCCNC(=N)N)C(=O)N[C@@H](CC(C)C)C(=O)N[C@@H](CC(=O)O)C(=O)N[C@@H](CCCNC(=N)N)C(=O)N[C@@H](CCCCN)C(=O)N[C@@H](CC(C)C)C(=O)N[C@@H](CCCNC(=N)N)C(=O)N[C@@H](CC(C)C)C(=O)N[C@@H](Cc1c[nH]c2ccccc12)C(=O)N[C@@H](Cc1c[nH]cn1)C(=O)N[C@@H](CCCNC(=N)N)C(=O)N[C@@H](CCCCN)C(=O)N[C@@H](CC(N)=O)C(=O)N[C@@H](Cc1ccc(O)cc1)C(=O)N1CCC[C@H]1C(=O)O", "test system": "ATCC 27853", "conditions": "with: 1 mM CaCl2", "MIC": "40 µg/mL"}
{"SMILES": "N=C(N)NCCC[C@@H]1NC(=O)[C@H](CCCNC(=N)N)NC(=O)[C@H](CCCNC(=N)N)NC(=O)[C@H](Cc2c[nH]c3ccccc23)NC(=O)[C@H](Cc2c[nH]c3ccccc23)NC(=O)[C@H](Cc2c[nH]c3ccccc23)NC(=O)[C@H](CCCNC(=N)N)NC1=O", "assay": "broth microdilution", "test system": "PAO1", "conditions": "37 °C", "MIC": "37 µg/mL"}
{"SMILES": "CC[C@H](C)[C@H](NC(=O)[C@H](CCCCN)NC(=O)[C@H](CCC(=O)O)NC(=O)[C@H](CCCCN)NC(=O)[C@H](CO)NC(=O)[C@H](CCCCN)NC(=O)[C@H](CCCNC(=N)N)NC(=O)[C@H](Cc1ccccc1)NC(=O)[C@H](Cc1ccccc1)NC(=O)[C@H](CC(=O)O)NC(=O)CNC(=O)[C@H](CC(C)C)NC(=O)[C@@H](N)CC(C)C)C(=O)NCC(=O)N[C@@H](CCCCN)C(=O)N[C@@H](CCC(=O)O)C(=O)N[C@@H](Cc1ccccc1)C(=O)N[C@@H](CCCCN)C(=O)N[C@@H](CCCNC(=N)N)C(=O)N[C@H](C(=O)N[C@H](C(=O)N[C@@H](CCC(N)=O)C(=O)N[C@@H](CCCNC(=N)N)C(=O)N[C@H](C(=O)N[C@@H](CCCCN)C(=O)N[C@@H](CC(=O)O)C(=O)N[C@@H](Cc1ccccc1)C(=O)N[C@@H](CC(C)C)C(=O)N[C@@H](CCCNC(=N)N)C(=O)N[C@@H](CC(N)=O)C(=O)N[C@@H](CC(C)C)C(=O)N[C@H](C(=O)N1CCC[C@H]1C(=O)N[C@@H](CCCNC(=N)N)C(=O)N[C@H](C(=O)N[C@@H](CCC(=O)O)C(=O)N[C@@H](CO)C(=O)O)[C@@H](C)O)C(C)C)[C@@H](C)CC)C(C)C)[C@@H](C)CC", "test system": "PAO1 mla transposon insertion mutants, RPMI with 5% LB", "MIC": "8 µM"}
{"SMILES": "CC(C)C[C@H](NC(=O)[C@@H]1CSCC(=O)N[C@@H](CCCCN)C(=O)N[C@@H](CC(C)C)C(=O)N[C@@H](CC(C)C)C(=O)N[C@H]2CCCCNC(=O)[C@H](CC(C)C)NC(=O)[C@H](CC(C)C)NC(=O)[C@H](CCCCN)NC(=O)CSC[C@H](NC(=O)[C@H](CC(C)C)NC(=O)[C@H](CC(C)C)NC(=O)[C@H](CCCCN)NC2=O)C(=O)N[C@@H](CCCCN)C(=O)N[C@@H](CCCCN)C(=O)N[C@@H](CCCCN)C(=O)N1)C(N)=O", "test system": "PAO1", "conditions": "18 h", "MIC": "> 256 µg/mL"}
{"SMILES": "CC[C@H](C)[C@@H]1NC(=O)[C@H](CC(C)C)NC(=O)[C@@H](NC(=O)[C@H](CO)NC(=O)[C@H](CCCNC(=N)N)NC(=O)[C@@H](N)CO)CSSC[C@@H](C(=O)N[C@@H](CCC(N)=O)C(=O)N[C@@H](CCCNC(=N)N)C(=O)N[C@@H](CC(C)C)C(=O)N[C@@H](Cc2ccccc2)C(N)=O)NC(=O)[C@H](C(C)C)NC(=O)[C@H]([C@@H](C)CC)NC(=O)[C@H](CC(C)C)NC(=O)[C@@H](NC(=O)[C@H](CO)NC(=O)[C@H](CCCNC(=N)N)NC(=O)[C@@H](N)CO)CSSC[C@@H](C(=O)N[C@@H](CCC(N)=O)C(=O)N[C@@H](CCCNC(=N)N)C(=O)N[C@@H](CC(C)C)C(=O)N[C@@H](Cc2ccccc2)C(N)=O)NC(=O)[C@H](C(C)C)NC1=O", "assay": "broth microdilution", "test system": "ATCC 27853", "MIC": "> 100 µg/mL"}
{"SMILES": "CC[C@H](C)[C@H](NC(=O)[C@H](Cc1c[nH]cn1)NC(=O)[C@H](CCCCNC(=O)[C@@H](NC(=O)[C@H](CCCCN)NC(=O)[C@H](Cc1ccccc1)NC(=O)[C@H](CCCCNC(=O)[C@H](CC(C)C)NC(=O)[C@@H]1CCCN1C(=O)[C@@H](N)CCCCN)NC(=O)[C@H](CC(C)C)NC(=O)[C@@H]1CCCN1C(=O)[C@@H](N)CCCCN)[C@@H](C)CC)NC(=O)[C@@H](NC(=O)[C@H](CCCCN)NC(=O)[C@H](Cc1ccccc1)NC(=O)[C@H](CCCCNC(=O)[C@H](CC(C)C)NC(=O)[C@@H]1CCCN1C(=O)[C@@H](N)CCCCN)NC(=O)[C@H](CC(C)C)NC(=O)[C@@H]1CCCN1C(=O)[C@@H](N)CCCCN)[C@@H](C)CC)C(N)=O", "test system": "PAO1, LB medium", "MIC": "> 64 µM"}
{"SMILES": "CC1C(=NNC(=O)c2ccncc2)C(C)C(c2ccc(Cl)cc2)OC1c1ccc(Cl)cc1 (stereo not drawn)", "assay": "microbial growth, broth dilution", "test system": "MTCC741", "conditions": "24 h", "MIC": "25 µg/mL"}
{"SMILES": "CC[C@@H](C)[C@@H](NC(=O)[C@@H](C)NC(=O)[C@@H](CCCCN)NC(=O)[C@@H](CC(C)C)NC(=O)[C@@H](C)NC(=O)[C@H](NC(=O)[C@@H](Cc1c[nH]cn1)NC(=O)[C@@H](CC(C)C)NC(=O)[C@H](NC(=O)[C@H](NC(=O)[C@@H](CCCCN)NC(=O)[C@@H](CCCCN)NC(=O)[C@@H](C)NC(=O)[C@@H](CO)NC(=O)[C@@H](CCCCN)NC(=O)[C@@H](Cc1ccccc1)NC(=O)[C@H](NC(=O)[C@@H](CCCCN)NC(=O)[C@@H](CC(C)C)NC(=O)[C@@H](Cc1ccccc1)NC(=O)[C@@H](CO)NC(=O)[C@@H](CCCCN)NC(=O)[C@@H](Cc1c[nH]c2ccccc12)NC(=O)[C@@H](CCCCN)NC(C)=O)[C@H](C)O)[C@H](C)O)C(C)C)[C@H](C)O)C(=O)N[C@H](CO)C(=O)N[C@H](CO)C(N)=O", "assay": "broth microdilution", "test system": "PA14", "conditions": "24 h, 37 °C", "MIC": "5.2 µM"}
{"SMILES": "CC(C)[C@H](NC(=O)[C@H](CCCNC(=N)N)NC(=O)[C@H](CCCNC(=N)N)NC(=O)[C@@H](NC(=O)[C@H](C)NC(=O)[C@H](CC(N)=O)NC(=O)[C@H](CCCNC(=N)N)NC(=O)[C@@H](NC(=O)[C@H](CCCNC(=N)N)NC(=O)[C@H](CCCNC(=N)N)NC(=O)[C@@H](NC(=O)[C@@H](NC(=O)[C@H](CCCNC(=N)N)NC(=O)[C@H](CCCNC(=N)N)NC(=O)[C@H](Cc1c[nH]c2ccccc12)NC(=O)[C@H](Cc1c[nH]c2ccccc12)NC(=O)CN)[C@@H](C)O)C(C)C)C(C)C)C(C)C)C(=O)O", "test system": "clinical strain 103", "conditions": "18 h, 37 °C", "MIC": "16 µg/mL"}
{"SMILES": "CC(C)C[C@H](NC(=O)[C@@H]1CSCC(=O)N[C@H]2CCCCNC(=O)CSC[C@H](NC(=O)[C@H](CCCCN)NC2=O)C(=O)N[C@@H](CCCCN)C(=O)N[C@@H](CC(C)C)C(=O)N1)C(N)=O", "test system": "PAO1", "conditions": "18 h", "MIC": "> 256 µg/mL"}
{"SMILES": "CC[C@H](C)[C@H](NC(=O)CNC(=O)[C@H](CCCCN)NC(=O)[C@H](C)NC(=O)[C@H](CCC(=O)O)NC(=O)[C@H](Cc1ccccc1)NC(=O)[C@H](CO)NC(=O)[C@H](CC(C)C)NC(=O)[C@@H](NC(=O)[C@H](CC(=O)O)NC(=O)[C@H](C)NC(=O)[C@@H](NC(=O)[C@@H](N)C(C)C)[C@@H](C)O)C(C)C)C(=O)N[C@@H](C)C(=O)N[C@H](C(=O)N[C@@H](CC(N)=O)C(=O)N[C@@H](Cc1c[nH]cn1)C(=O)N[C@@H](CO)C(=O)N[C@@H](C)C(=O)N[C@H]1CSSC[C@@H]2NC(=O)[C@H](C(C)C)NC(=O)CNC(=O)[C@H](CC(N)=O)NC(=O)[C@H](CCC(N)=O)NC(=O)[C@H](C)NC(=O)[C@H](CO)NC(=O)CNC(=O)CNC(=O)[C@H](CCCCN)NC(=O)[C@H](CCCCN)NC(=O)[C@H](CCCNC(=N)N)NC(=O)[C@H](CC(C)C)NC(=O)[C@H](C)NC(=O)[C@H]([C@@H](C)CC)NC(=O)[C@H](CSSC[C@@H](C(=O)N[C@@H](CCCNC(=N)N)C(=O)N[C@@H](CC(N)=O)C(=O)O)NC(=O)[C@H](C(C)C)NC2=O)NC(=O)[C@H](Cc2c[nH]cn2)NC(=O)[C@H](CC(C)C)NC(=O)[C@H](C)NC1=O)C(C)C", "assay": "broth microdilution", "test system": "KCTC 1637", "conditions": "16 h, 37 °C", "MIC": "> 100 µM"}
{"note": "Repeated from above:"}
{"SMILES": "CC[C@H](C)[C@H](NC(=O)[C@H](CCCCN)NC(=O)[C@H](CCC(=O)O)NC(=O)[C@H](CCCCN)NC(=O)[C@H](CO)NC(=O)[C@H](CCCCN)NC(=O)[C@H](CCCNC(=N)N)NC(=O)[C@H](Cc1ccccc1)NC(=O)[C@H](Cc1ccccc1)NC(=O)[C@H](CC(=O)O)NC(=O)CNC(=O)[C@H](CC(C)C)NC(=O)[C@@H](N)CC(C)C)C(=O)NCC(=O)N[C@@H](CCCCN)C(=O)N[C@@H](CCC(=O)O)C(=O)N[C@@H](Cc1ccccc1)C(=O)N[C@@H](CCCCN)C(=O)N[C@@H](CCCNC(=N)N)C(=O)N[C@H](C(=O)N[C@H](C(=O)N[C@@H](CCC(N)=O)C(=O)N[C@@H](CCCNC(=N)N)C(=O)N[C@H](C(=O)N[C@@H](CCCCN)C(=O)N[C@@H](CC(=O)O)C(=O)N[C@@H](Cc1ccccc1)C(=O)N[C@@H](CC(C)C)C(=O)N[C@@H](CCCNC(=N)N)C(=O)N[C@@H](CC(N)=O)C(=O)N[C@@H](CC(C)C)C(=O)N[C@H](C(=O)N1CCC[C@H]1C(=O)N[C@@H](CCCNC(=N)N)C(=O)N[C@H](C(=O)N[C@@H](CCC(=O)O)C(=O)N[C@@H](CO)C(=O)O)[C@@H](C)O)C(C)C)[C@@H](C)CC)C(C)C)[C@@H](C)CC", "test system": "PAO1 mla transposon insertion mutants, RPMI with 5% LB", "MIC": "8 µM"}
